{"data": "Measurements gathered from unrelated publications", "note": "Each numbered part is a random draw from the data of one study; scales do not carry over between parts. ± gives the spread as reported.", "chain of UniProt O00519 (whole entry, looked up)": "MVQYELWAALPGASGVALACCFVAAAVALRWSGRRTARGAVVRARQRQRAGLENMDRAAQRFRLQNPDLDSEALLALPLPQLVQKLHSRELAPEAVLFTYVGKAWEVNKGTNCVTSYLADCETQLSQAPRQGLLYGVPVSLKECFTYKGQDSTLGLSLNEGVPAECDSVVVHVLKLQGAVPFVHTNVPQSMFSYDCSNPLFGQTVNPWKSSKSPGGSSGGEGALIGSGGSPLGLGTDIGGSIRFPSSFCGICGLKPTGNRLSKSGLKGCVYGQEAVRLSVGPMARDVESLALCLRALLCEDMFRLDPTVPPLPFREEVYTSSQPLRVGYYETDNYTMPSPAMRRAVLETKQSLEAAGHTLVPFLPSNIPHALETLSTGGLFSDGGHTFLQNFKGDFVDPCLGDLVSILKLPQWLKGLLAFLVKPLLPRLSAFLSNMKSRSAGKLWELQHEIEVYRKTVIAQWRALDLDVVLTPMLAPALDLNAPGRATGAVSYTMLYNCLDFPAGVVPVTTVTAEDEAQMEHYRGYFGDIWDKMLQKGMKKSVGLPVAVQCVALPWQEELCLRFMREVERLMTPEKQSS", "chain of UniProt O42275 (whole entry, looked up)": "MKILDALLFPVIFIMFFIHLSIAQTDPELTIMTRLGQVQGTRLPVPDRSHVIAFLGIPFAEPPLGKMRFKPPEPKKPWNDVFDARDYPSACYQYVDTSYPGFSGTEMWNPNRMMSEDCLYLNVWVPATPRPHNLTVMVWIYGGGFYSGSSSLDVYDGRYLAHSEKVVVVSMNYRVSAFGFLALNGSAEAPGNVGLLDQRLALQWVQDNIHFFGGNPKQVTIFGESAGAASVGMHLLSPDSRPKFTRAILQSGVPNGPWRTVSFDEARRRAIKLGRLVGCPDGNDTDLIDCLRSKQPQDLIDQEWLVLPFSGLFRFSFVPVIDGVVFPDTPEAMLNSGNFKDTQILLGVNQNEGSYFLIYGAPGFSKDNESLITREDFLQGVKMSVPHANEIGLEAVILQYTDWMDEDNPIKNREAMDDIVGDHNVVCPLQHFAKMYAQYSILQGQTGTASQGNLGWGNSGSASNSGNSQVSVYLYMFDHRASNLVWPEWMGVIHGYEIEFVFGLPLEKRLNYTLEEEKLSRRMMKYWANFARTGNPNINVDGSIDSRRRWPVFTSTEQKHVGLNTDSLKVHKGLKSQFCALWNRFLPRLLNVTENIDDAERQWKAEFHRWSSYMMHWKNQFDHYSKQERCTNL", "chain of UniProt P34914 (whole entry, looked up)": "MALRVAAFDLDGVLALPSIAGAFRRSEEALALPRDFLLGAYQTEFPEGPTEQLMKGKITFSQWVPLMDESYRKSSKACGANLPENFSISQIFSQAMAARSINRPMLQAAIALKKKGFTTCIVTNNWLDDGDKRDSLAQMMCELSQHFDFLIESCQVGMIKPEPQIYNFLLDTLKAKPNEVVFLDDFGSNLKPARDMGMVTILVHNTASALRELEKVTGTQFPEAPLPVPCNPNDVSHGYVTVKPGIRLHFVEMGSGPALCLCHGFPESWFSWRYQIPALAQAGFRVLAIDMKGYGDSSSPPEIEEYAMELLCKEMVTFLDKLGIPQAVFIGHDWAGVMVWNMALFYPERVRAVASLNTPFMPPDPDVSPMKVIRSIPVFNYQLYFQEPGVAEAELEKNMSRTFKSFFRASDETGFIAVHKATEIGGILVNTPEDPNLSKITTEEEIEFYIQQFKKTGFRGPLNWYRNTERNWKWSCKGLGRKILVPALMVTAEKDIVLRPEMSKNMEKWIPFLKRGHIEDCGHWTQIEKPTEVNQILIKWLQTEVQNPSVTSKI"}
{"data": "Series 1", "SMILES": "Cc1cc(OCc2nnc(SC3CCCC3)n2-c2cccnc2)ccc1-c1ccc(S(C)(=O)=O)cc1"}
{"cell line": "NCI-H522", "CC50 [µM]": "> 100"}
{"cell line": "CAKI-1", "CC50 [µM]": "> 100"}
{"cell line": "MDA-MB-435", "CC50 [µM]": 6.06}
{"cell line": "MCF7", "CC50 [µM]": "> 100"}
{"data": "Mixed results"}
{"Molecule": "Cc1cccc(CN2CCC(C(=O)Nc3ccc(-c4cnc5ccccc5c4)cc3)CC2)c1", "tested on": "Fatty-acid amide hydrolase 1 (FAAH, Homo sapiens, UniProt O00519)", "measurement": "IC50", "result": "0.0347 µM"}
{"Molecule": "pyc (Rhizobium etli, UniProt Q2K340)", "tested on": "CC(=O)OP(=O)(O)O", "technique": "steady-state kinetics", "pH": "pH 7.5", "temperature": "25 °C", "measurement": "kcat", "result": "0.00967 ± 0.000167 s⁻¹"}
{"Molecule": "O=C(Nc1cc(F)cc(F)c1)NC1CCN(c2c(NS(=O)(=O)Cc3ccccc3)c(=O)c2=O)CC1", "tested on": "Bifunctional epoxide hydrolase 2 (Ephx2, Mus musculus, UniProt P34914)", "measurement": "IC50", "result": "1.2 ± 0.14 µM"}
{"Molecule": "O=C(Nc1ccc(-c2cnc3ccccc3c2)cc1)C1CCN(Cc2cccc([N+](=O)[O-])c2)CC1", "tested on": "Acetylcholinesterase (ache, Electrophorus electricus, UniProt O42275)", "measurement": "IC50", "result": "> 10 µM"}
{"note": "A few entries again (mixed results):"}
{"Molecule": "O=C(Nc1ccc(-c2cnc3ccccc3c2)cc1)C1CCN(Cc2cccc([N+](=O)[O-])c2)CC1", "tested on": "Acetylcholinesterase (ache, Electrophorus electricus, UniProt O42275)", "measurement": "IC50", "result": "> 10 µM"}
